Assay results gathered from unrelated publications.
Numbered parts are unrelated; each lists some results of a single study.

Sample 1
Target: Sal-like protein 4, full length isoform A (SALL4, Homo sapiens, UniProt Q9UJQ4, residues 1-1053)
Sequence of UniProt Q9UJQ4 (whole entry, looked up): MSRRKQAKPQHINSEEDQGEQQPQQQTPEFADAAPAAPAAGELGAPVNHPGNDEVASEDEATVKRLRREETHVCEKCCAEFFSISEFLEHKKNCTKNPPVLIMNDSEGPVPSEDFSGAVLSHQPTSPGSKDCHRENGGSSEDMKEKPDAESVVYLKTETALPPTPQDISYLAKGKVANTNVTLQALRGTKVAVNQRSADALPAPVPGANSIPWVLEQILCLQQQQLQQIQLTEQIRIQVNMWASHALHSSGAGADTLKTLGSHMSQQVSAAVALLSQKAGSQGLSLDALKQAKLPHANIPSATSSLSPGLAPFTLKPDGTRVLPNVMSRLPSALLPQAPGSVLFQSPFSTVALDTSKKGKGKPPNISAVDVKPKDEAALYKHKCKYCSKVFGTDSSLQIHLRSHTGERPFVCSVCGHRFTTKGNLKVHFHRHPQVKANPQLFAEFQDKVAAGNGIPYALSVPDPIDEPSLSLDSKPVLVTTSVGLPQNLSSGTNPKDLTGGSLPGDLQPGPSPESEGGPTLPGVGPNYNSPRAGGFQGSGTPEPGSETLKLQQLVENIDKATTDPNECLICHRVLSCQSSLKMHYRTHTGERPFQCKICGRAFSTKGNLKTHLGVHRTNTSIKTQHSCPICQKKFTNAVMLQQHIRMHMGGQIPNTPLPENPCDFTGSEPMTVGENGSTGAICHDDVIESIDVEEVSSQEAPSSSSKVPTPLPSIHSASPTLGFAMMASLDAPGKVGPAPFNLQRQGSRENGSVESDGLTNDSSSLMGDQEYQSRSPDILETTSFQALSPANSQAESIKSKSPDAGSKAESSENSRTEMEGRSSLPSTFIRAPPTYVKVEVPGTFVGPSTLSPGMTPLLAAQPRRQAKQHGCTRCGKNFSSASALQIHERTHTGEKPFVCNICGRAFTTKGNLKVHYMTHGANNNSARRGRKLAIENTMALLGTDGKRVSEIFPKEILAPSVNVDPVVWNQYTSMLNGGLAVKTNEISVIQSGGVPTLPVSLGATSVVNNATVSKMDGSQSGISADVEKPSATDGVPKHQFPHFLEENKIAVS
Technique: universal PBM
Molecule type: double-stranded DNA, one strand shown
Medium: in vitro
Concentration: 600 nM
Notes: 8-mer, flanks averaged, mean of replicates
Direction: higher = stronger binding
| Sequence | E-score |
| --- | --- |
| ATAGCGCA | 0.167 |
| TGTCATAA | 0.365 |
| ACGCTTAT | 0.0724 |
| CAGTGATG | 0.131 |
| AGCCACCG | -0.224 |
| ACTTCCGC | -0.0578 |
| GCGCGCAC | -0.2 |

Sample 2
Target: RNA binding protein fox-1 homolog 2, RRM domain, GST-SBP tag (RBFOX2, Homo sapiens, UniProt O43251-10, residues 100-194)
Technique: RNA Bind-n-Seq
Molecule type: RNA
Medium: in vitro
Concentration: 365 nM
Notes: natural RNA segment, single round, ends assumed
Relative to: no-protein control
Direction: higher = stronger binding
| Sequence | RBNS enrichment (R) |
| --- | --- |
| GGGAGUUCUACAGUCCGACGAUCACAUCAUGUAUACGCAGCAUUUAUUUGGAGUUUUUCCUUUGGCUUUUUUUCCUCUCUUUUUCAGUUAUGAAACUUGUAUGCAUGGAUUUCACAUCUCCAUAGCUAGACCCUGGAAUUCUCGGGUGCCAA | 0.567 |
| GGGAGUUCUACAGUCCGACGAUCCUGUUUCCAGUUUUUAAAAAUGUAAUAUUAUGGAAAGUAUUUUGCUUCAAGUUGAAUAUGUAUUGUGUAUAUACCUCAAGUUCAGGUUAAUGGCUUUGAUUUGUGCUCUAUGGAAUUCUCGGGUGCCAA | 0.593 |
| GGGAGUUCUACAGUCCGACGAUCCCUGUUCACUUACUGUAUAAUUUAAAAUCAUUUAUGUAGCUGAGACACUUUGAUACUUCAAUUAUAUCGUGAAUGUUUUAUUUUGCUAAAUCAUGUGCCAUGUGUAGGCUUGGAAUUCUCGGGUGCCAA | 1.09 |
| GGGAGUUCUACAGUCCGACGAUCUGACAUUUGAUUUCCAGUGUAUUUAAAUUACUCCGUGGUAAAUUUCAUUGUCUUUUCCUGUGUAAAUGUUAAAUGACAAUACCAUCGGUGAAGGCCCUCCACAGUGGACAUGGAAUUCUCGGGUGCCAA | 0.398 |

Sample 3
Target: Histone acetyltransferase KAT6A, winged helix 2, GST fusion (KAT6A, Homo sapiens, UniProt Q92794, residues 85-181)
Technique: protein binding microarray
Molecule type: double-stranded DNA, one strand shown
Medium: in vitro
Concentration: not given
Notes: 8-mer, flanks averaged, mean of 2 arrays, mostly near background
Relative to: not given
Direction: higher = stronger binding
Construct (chain): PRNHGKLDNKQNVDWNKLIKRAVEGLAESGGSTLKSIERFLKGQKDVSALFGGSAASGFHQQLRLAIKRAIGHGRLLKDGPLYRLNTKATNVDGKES
| Sequence | E-score |
| --- | --- |
| TGGTTAAA | -0.0117 |
| ATGGGGGC | -0.111 |
| CAAGGATG | -0.0271 |
| GGGATGGA | 0.00353 |
| CGTGACGA | 0.126 |
| GCTCTTAA | 0.106 |

Mixed results
| Substance | target | assay | test system | conditions | scale | quantity | value |
| --- | --- | --- | --- | --- | --- | --- | --- |
| PhoQ, residues 284 288 289 292 302 303 ASTSDA | PhoP, residues 12 14 15 18 19 SMASL (Escherichia coli, UniProt P23836) | Sort-seq, measured: YFP reporter | E. coli | PhoQ-PhoP variant library, added: 10 µM Mg2+ | relative to: high Mg2+ state, higher = stronger signaling | fold induction | 2.32 |

A few entries again (sample 3):
| Sequence | E-score |
| --- | --- |
| GGGATGGA | 0.00353 |
